Results gathered from unrelated publications.
Protocols differ between the studies behind these lines. Several values in a cell are separate wells, animals, samples, runs or records.
Target: Serine/threonine-protein kinase Sgk2 (SGK2, Homo sapiens, UniProt Q9HBY8)

| SMILES | test | system | setting | how to read | endpoint | result |
| --- | --- | --- | --- | --- | --- | --- |
| Cc1cccc(O[C@H]2CCC[C@@H](C(C)CNCc3ccncc3)C2)c1 (relative stereo) | enzyme activity, inhibitor |  | 1 µM |  | inhibition | -5% |
| COCC12C(=O)NC3C4(C(OC)CC1O)C1CC5(O)C(OC)C(O)C(OC(C)=O)(C1C5OC(=O)c1ccccc1)C3(O)C(OC)C24 (centres unmarked) | kinase activity, inhibitor, ProQinase kinase profiling |  | 25 µM | baseline: control | remaining activity | 118% and 97% |
| C=CC(=O)N1CCCC(n2c(=O)c3ncccc3n(Cc3ccc(Oc4ccccc4)cc3)c2=O)C1 (centres unmarked) | cell-free assay, competition with immobilised ligand |  | 1 µM |  | remaining binding | 99% |
| Cc1cnc2nc1Nc1cccc(c1)COC/C=C/COCc1cc(ccc1OCCN1CCOCC1)N2 | binding, competition with immobilised ligand |  | 0.1 µM |  | remaining binding | 90% |
| COc1ccc(NC(=O)Nc2ccc3c(c2)C(=O)N(C(C)CO)CC(C)C(CN(C)Cc2ccc4c(c2)OCO4)O3)cc1 (centres unmarked) | kinase activity, KinaseProfiler |  | 0.03 µM, species human | baseline: control | remaining activity | 105% |
| C=CC(=O)Nc1cccc(-c2cnc3[nH]cc(C(=O)NC(C)(C)C)c3n2)c1 | kinase activity |  | 0.1 µM |  | inhibition | 2% and 5% |
| Cc1ccc(C(=O)Nc2ccc(CN3CCN(C)CC3)c(C(F)(F)F)c2)cc1C#Cc1cnc2cccnn12 | target engagement, NanoBRET | human cells |  |  | upper asymptote | 1530 |
| O=C=[N][Ru-4]123([n]4c5ccc(O)cc5c5c6c(c7cc(F)c[n+]1c7c54)C(=O)NC6=O)[S+]1CC[S+]2CC[S+]3CC1 (centres unmarked) | enzyme activity |  | 100 nM, human enzyme, with: 10 µM ATP | baseline: untreated | remaining activity | 53% |
| CNC(=O)C[C@H](Cc1ccc(C#N)cc1)NC(=O)c1cc(-c2ccc(CN[C@H](C)c3ccc(C)cc3)o2)ccc1Cl | enzyme activity, inhibitor |  | 1 µM |  | activity vs control | 104% |
| CCn1cc(C(=O)O)c(=O)c2c(N)c(F)c(NC3CCCCC3)cc21 | kinase activity |  | 0.1 µM, with: ATP at Km |  | inhibition | 2.3% |
| C=CC(=O)N1CCc2ccc(-n3c(=O)ccc4cnc5ccc(-c6cnn(C)c6)cc5c43)cc21 | KINOMEscan |  | 1 µM | baseline: DMSO control | remaining binding | 100% |
| COc1cc(Nc2nccc(-c3cnn4nc(OC)ccc34)n2)cc(C(F)(F)F)c1 | binding, competition with immobilised ligand |  | 1 µM |  | remaining binding | 76% |
| NC(=O)C[C@H]1CCc2sc3ncnc(O[C@H]4CC[C@H](N5CCOCC5)CC4)c3c21 | enzyme activity, inhibitor |  | 10 µM |  | inhibition | 7% |
| COc1c(Cl)cccc1Nc1c(-c2ccncc2C#C[C@@]2(C)CCCN2C(=O)/C=C/CN(C)C)[nH]c2c1C(=O)NCC2 | binding, competition with immobilised ligand |  | 3 µM |  | remaining binding | 64% |

For quick reference, copied from above:
| SMILES | test | system | setting | how to read | endpoint | result |
| --- | --- | --- | --- | --- | --- | --- |
| COc1c(Cl)cccc1Nc1c(-c2ccncc2C#C[C@@]2(C)CCCN2C(=O)/C=C/CN(C)C)[nH]c2c1C(=O)NCC2 | binding, competition with immobilised ligand |  | 3 µM |  | remaining binding | 64% |
